Results collected from several papers.
Numbers after ± are the reported error.

For `CC[C@H](C)[C@@H]1NC(=O)[C@@H]2CSSC[C@H](NC(=O)CNC(=O)c3ccc(F)cc3)C(=O)N[C@@H](CCCNC(=N)N)C(=O)N[C@@H](CO)C(=O)N[C@@H](CC(C)C)C(=O)N[C@@H](C)C(=O)N[C@@H](CCCNC(=N)N)C(=O)N[C@@H]([C@@H](C)O)C(=O)N[C@@H](CC(=O)O)C(=O)N[C@@H](CC(C)C)C(=O)N[C@@H](CC(=O)O)C(=O)N[C@@H](Cc3c[nH]cn3)C(=O)N[C@@H](CC(C)C)C(=O)N[C@@H](CCCNC(=N)N)C(=O)NCC(=O)N[C@@H](CCCNC(=N)N)C(=O)N[C@H]3CSSC[C@H](NC1=O)C(=O)N[C@@H](CC(C)C)C(=O)N[C@@H](CCC(=O)O)C(=O)N[C@@H](CC(N)=O)C(=O)NCC(=O)N[C@@H](Cc1ccccc1)C(=O)N[C@H](C(=O)NCC(=O)O)CSSC[C@H](NC(=O)[C@H](CC(=O)O)NC(=O)[C@H](CO)NC(=O)[C@H](CC(=O)O)NC(=O)[C@H](CO)NC(=O)[C@H](CO)NC3=O)C(=O)N[C@@H](CC(C)C)C(=O)N[C@@H](C)C(=O)N[C@@H](CCC(=O)O)C(=O)N2` [fluorine-18 labelled], the tissue uptake was 0.03 ± 0.01 %ID/g (γ-counting; mouse, pancreas).
`CNC(=O)c1ccc(-c2cnn3ccc(C(=O)N(C)c4ccc(Cl)c(C(=O)OC)c4)cc23)cc1` gave an AUC(0-8 h) of 1.98 ng·h/mL (Wistar rats, both sexes, plasma; oral, 50 mg/kg/day, day 1, 2-week toxicology study).
`CC(=O)N[C@H](CCCCNC(=O)C(C)F)C(=O)N[C@@H](CS)C(=O)N[C@@H](CS)C(=O)N[C@@H](CCC(=O)O)C(=O)N[C@@H](Cc1c[nH]cn1)C(=O)N[C@H](Cc1ccccc1)C(=O)N[C@@H](CCCNC(=N)N)C(=O)N[C@@H](Cc1c[nH]c2ccccc12)C(=O)N[C@@H](CS)C(=O)N[C@@H](CCCNC(=N)N)C(=O)N1CCC[C@H]1C(=O)N[C@H](C(N)=O)C(C)C` (stereo partly shown) [fluorine-18 labelled]: “tumour to tissue uptake ratio” 7.45 ± 0.69 (male C57BL/6 mice, B16-F10 tumour; intravenous, 4 h; relative to: tumour over blood).
`CCCCCOc1ccc(-c2cc(-c3ccc(C(=O)N[C@H]4C[C@@H](O)[C@@H](O)NC(=O)[C@@H]5[C@@H](O)[C@@H](C)CN5C(=O)[C@H]([C@H](O)CC(N)=O)NC(=O)[C@H]([C@H](O)[C@@H](O)c5ccc(O)c(OS(=O)(=O)O)c5)NC(=O)[C@@H]5C[C@@H](O)CN5C(=O)[C@H]([C@@H](C)O)NC4=O)cc3)no2)cc1` has a clearance of 0.622 mL/min/kg (preterm neonates below 1000 g, plasma; intravenous, 15 mg/kg/day, repeated dosing, mean).
`CCN(CC)CCCC(C)Nc1ccnc2cc(Cl)ccc12` (stereo not shown) gave a uric acid of 127 ± 5.63 µmol/L (male athymic BALB/c nude mice, xenograft, serum; intraperitoneal, 60 mg/kg every other day, 2 weeks, with: sulforaphane 5 mg/kg).
With `CC[C@@]1(O)C(=O)OCc2c1cc1n(c2=O)Cc2cc3c(CN(C)C)c(O)ccc3nc2-1` the AUC(0-inf) was 66.6 ng·h/mL (human patients, plasma; oral, 2.5 mg daily for 5 days, geometric mean, with: pazopanib 800 mg daily).
With `N[C@@H](CC(=O)N1CCc2c(nc(C(F)(F)F)nc2C(F)(F)F)C1)CN1CC(F)(F)CCC1=O` the pre-dose concentration was under 5% (human, plasma; oral, dose not given, 14 day washout, carryover, one subject; relative to: Cmax).
`CC[C@H](C)[C@H](NC(=O)[C@@H](N)CCCNC(=N)N)C(=O)N[C@H](C(=O)N1CCC[C@H]1C(=O)N[C@@H](C)C(N)=O)C(C)C` gave a Tmax of 4 min (healthy volunteers, both sexes, plasma; intravenous infusion, 3.0 mg/kg, single ascending dose).
`CC(=O)N[C@H](C(=O)N[C@@H](CO)C(=O)N[C@@H](CCCNC(=N)N)C(=O)N[C@@H](CCCNC(=N)N)C(=O)N[C@@H](CCCNC(=N)N)C(N)=O)C(C)C`: “AUC(tau) accumulation ratio” 0.9 (healthy adults; intravenous infusion, 1 mg/kg every 6 h, over 30 min, minimum among subjects; relative to: dose 13 over dose 1).
With `CN[C@@](C)(C[18F])C(=O)O` the tracer uptake was 3.7 %ID/g (A549 tumour model; host not given, lung; 15 min, tumour-bearing).
Under “AUC(tau) ratio steady state”, `N[C@@H](CC(=O)N1CCc2c(nc(C(F)(F)F)nc2C(F)(F)F)C1)CN1CC(F)(F)CCC1=O` is recorded as 1 (healthy Korean men, plasma; oral, dose not given, with: glimepiride; relative to: with over without glimepiride).
`CCCCCCCC[N+](C)(C)CCCCCCCC` has an intrinsic clearance of 1.05 mL/h/mg protein (substrate depletion; human liver microsomes; 0.5 µM, 0 to 3 h, 37 °C, with: NADPH).
`CC1N=C(c2ccccc2F)c2cc(N3CCCCC3)ccc2NC1=O` (stereo not shown) has a solubility of over 100 µM (shake flask; PBS; 24 h, pH 7.4).

For quick reference, copied from above:
`CC(=O)N[C@H](C(=O)N[C@@H](CO)C(=O)N[C@@H](CCCNC(=N)N)C(=O)N[C@@H](CCCNC(=N)N)C(=O)N[C@@H](CCCNC(=N)N)C(N)=O)C(C)C`: “AUC(tau) accumulation ratio” 0.9 (healthy adults; intravenous infusion, 1 mg/kg every 6 h, over 30 min, minimum among subjects; relative to: dose 13 over dose 1).
With `CN[C@@](C)(C[18F])C(=O)O` the tracer uptake was 3.7 %ID/g (A549 tumour model; host not given, lung; 15 min, tumour-bearing).
